Measurements of several laboratories.
Each line is one published result; not all experiments were run side by side.
4'-phosphopantetheinyl transferase PptT: 4'-phosphopantetheinyl transferase PptT (Mycobacterium tuberculosis, UniProt O33336)
UniProt O33336, sequence (whole entry, looked up): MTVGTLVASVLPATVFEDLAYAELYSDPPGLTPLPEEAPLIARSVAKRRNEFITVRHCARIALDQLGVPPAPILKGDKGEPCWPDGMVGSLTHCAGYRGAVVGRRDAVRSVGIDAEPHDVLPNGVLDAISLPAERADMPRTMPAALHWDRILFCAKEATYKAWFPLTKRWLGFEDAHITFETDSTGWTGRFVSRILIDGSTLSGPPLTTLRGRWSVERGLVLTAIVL
UniProt Q8TBX8, sequence (whole entry, looked up): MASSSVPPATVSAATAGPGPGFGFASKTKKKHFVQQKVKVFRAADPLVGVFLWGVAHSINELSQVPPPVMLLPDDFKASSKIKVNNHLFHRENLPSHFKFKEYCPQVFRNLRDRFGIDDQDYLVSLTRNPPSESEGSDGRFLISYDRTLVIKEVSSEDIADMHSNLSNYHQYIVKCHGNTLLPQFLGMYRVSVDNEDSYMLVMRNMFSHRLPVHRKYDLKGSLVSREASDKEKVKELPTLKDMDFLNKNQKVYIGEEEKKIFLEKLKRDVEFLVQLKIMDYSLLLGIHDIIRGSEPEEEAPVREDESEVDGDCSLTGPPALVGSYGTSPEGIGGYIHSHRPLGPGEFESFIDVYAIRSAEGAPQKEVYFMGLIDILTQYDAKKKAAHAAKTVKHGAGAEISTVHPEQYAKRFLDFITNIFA
UniProt Q07011, sequence (whole entry, looked up): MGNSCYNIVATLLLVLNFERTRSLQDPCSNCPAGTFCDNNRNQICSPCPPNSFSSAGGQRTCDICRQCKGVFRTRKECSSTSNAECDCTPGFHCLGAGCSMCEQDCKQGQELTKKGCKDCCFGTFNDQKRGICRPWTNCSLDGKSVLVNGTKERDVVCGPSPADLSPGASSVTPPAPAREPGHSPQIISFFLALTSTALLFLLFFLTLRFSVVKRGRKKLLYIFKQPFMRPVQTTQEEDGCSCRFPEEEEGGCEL
UniProt Q8IVW4, sequence (whole entry, looked up): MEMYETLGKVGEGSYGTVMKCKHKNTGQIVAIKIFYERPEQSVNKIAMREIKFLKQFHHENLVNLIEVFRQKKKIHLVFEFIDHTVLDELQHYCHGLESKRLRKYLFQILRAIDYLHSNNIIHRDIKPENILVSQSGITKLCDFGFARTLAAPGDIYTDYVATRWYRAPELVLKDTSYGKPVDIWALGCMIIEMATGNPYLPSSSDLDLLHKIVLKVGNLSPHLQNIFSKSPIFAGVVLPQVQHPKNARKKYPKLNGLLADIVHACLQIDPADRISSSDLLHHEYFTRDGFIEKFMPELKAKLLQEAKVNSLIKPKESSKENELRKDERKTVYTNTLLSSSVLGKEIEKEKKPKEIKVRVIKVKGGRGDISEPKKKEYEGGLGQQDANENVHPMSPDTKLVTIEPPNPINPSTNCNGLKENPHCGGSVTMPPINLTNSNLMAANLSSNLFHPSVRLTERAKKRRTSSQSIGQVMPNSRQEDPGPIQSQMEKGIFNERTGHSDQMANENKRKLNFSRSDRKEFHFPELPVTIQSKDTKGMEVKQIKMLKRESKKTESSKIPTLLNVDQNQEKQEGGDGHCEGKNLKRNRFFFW
UniProt Q9P0L9, sequence (whole entry, looked up): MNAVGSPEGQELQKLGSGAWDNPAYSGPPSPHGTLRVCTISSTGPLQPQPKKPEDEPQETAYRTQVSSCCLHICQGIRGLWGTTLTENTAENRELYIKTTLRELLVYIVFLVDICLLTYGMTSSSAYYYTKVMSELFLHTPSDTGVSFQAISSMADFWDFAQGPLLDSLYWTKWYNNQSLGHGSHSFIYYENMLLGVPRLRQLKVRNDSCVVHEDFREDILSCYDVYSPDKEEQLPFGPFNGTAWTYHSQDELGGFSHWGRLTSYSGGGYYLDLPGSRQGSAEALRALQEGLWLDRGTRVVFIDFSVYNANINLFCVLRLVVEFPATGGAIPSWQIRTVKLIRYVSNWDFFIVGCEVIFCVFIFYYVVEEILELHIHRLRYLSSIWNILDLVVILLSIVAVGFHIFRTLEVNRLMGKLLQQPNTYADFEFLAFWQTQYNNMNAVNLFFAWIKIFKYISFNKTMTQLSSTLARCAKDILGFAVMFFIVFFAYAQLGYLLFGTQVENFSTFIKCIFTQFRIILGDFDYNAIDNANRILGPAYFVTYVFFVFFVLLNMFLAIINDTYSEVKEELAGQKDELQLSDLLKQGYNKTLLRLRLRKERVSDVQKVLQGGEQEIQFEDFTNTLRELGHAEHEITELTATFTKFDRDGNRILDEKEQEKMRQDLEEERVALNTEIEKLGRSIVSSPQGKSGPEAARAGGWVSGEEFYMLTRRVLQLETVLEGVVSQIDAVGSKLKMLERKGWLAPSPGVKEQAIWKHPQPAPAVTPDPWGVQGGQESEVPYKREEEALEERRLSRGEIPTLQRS
UniProt P22002, sequence (whole entry, looked up): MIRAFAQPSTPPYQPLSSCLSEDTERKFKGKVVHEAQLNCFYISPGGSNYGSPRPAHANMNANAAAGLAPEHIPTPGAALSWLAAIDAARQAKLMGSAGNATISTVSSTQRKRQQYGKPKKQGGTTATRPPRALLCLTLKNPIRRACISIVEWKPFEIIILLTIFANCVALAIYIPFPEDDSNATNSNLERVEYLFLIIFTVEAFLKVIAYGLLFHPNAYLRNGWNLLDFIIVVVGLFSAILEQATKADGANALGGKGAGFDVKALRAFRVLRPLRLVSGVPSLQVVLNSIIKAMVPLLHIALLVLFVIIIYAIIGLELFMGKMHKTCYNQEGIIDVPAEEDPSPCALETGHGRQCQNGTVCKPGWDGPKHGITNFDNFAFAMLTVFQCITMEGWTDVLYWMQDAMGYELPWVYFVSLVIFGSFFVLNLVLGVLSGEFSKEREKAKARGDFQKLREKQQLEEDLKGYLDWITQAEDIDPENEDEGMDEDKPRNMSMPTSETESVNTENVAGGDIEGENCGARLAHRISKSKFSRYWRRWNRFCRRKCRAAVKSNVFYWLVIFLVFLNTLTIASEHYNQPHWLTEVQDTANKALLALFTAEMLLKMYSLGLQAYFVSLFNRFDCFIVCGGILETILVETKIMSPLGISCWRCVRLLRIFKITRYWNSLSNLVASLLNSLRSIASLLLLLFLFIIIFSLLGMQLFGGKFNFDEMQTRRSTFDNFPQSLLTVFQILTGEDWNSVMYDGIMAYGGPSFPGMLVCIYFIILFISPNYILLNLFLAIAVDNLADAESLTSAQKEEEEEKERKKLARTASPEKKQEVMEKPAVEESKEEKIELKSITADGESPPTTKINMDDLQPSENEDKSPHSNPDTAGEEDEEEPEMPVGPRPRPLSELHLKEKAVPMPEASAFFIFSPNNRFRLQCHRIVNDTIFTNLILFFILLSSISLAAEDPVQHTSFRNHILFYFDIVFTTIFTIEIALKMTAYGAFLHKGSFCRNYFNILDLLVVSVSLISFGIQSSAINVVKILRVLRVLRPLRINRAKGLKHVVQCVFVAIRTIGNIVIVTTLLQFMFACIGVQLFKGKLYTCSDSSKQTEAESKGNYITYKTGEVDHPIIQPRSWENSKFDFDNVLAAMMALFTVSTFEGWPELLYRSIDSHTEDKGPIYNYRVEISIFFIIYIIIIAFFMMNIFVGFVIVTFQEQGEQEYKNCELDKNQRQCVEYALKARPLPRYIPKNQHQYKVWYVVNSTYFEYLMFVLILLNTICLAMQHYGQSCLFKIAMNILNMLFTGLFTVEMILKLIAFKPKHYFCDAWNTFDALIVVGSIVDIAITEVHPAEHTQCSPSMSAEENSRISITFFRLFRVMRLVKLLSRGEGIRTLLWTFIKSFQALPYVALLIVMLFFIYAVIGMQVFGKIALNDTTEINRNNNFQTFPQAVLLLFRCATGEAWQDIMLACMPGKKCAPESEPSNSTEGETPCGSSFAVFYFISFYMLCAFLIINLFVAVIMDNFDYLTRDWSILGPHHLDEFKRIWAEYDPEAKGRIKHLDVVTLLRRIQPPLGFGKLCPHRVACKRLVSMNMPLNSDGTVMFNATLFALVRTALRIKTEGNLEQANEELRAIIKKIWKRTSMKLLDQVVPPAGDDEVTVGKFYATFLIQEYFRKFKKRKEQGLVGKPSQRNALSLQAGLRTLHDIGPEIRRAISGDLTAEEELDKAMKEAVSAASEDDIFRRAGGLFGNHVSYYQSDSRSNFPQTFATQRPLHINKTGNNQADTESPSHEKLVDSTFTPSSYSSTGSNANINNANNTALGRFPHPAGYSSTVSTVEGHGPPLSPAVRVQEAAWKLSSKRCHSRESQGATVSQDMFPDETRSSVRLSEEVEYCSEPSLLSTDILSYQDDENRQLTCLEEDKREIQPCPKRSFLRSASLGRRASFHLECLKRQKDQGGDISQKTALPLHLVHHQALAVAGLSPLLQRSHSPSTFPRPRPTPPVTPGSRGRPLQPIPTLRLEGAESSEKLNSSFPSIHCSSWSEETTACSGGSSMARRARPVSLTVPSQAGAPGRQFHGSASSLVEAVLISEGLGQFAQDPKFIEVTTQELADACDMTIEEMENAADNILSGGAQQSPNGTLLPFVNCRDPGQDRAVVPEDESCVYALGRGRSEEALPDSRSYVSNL
UniProt Q9NUW8, sequence (whole entry, looked up): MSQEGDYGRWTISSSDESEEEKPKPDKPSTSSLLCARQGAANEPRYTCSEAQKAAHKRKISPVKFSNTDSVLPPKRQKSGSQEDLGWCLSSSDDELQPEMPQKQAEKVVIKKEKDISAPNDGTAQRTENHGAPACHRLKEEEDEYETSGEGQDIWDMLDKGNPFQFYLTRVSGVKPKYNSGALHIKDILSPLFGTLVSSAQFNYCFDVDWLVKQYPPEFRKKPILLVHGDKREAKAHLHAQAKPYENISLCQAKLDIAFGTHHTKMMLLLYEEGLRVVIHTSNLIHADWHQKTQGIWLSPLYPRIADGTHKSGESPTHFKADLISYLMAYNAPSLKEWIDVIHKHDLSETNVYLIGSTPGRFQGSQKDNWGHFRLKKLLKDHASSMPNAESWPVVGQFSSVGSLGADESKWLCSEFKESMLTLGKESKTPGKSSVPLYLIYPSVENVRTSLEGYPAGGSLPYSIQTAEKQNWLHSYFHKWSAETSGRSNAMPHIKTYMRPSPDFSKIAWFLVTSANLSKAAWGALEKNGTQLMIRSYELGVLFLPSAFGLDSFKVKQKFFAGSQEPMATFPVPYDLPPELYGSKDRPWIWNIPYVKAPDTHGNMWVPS

SMILES | target or system | test | system | setting | endpoint | result
Nc1ncc(-c2nc(N3CCOCC3)nc(N3CCOCC3)n2)c(C(F)F)n1 | PIP4K2C (Homo sapiens, UniProt Q8TBX8) | binding, competition with immobilised ligand |  | 10 µM | remaining binding | 84%
CCCC[C@@H]1NC(=O)[C@H](Cc2ccc(O)cc2)NC(=O)[C@@H]2CCCN2C(=O)[C@H](CC(=O)O)NC(=O)[C@H](C)NC(=O)[C@H](Cc2ccccc2)NC(=O)[C@@H]2CSCCC(=O)N3CN(CN(C3)C(=O)CCSC[C@@H](C(=O)N[C@@H](CNC(=O)CCc3cn(CCOCCOCCOCCOCCOCCOCCOCCOCCOCCOCCOCCOCCOCCOCCOCCOCCOCCOCCOCCOCCOCCOCCOCCNC(=O)N[C@H]4CSCCC(=O)N5CN6CN(C5)C(=O)CCSC[C@H](NC(=O)[C@@H](CC(=O)O)NC(=O)[C@H](Cc5cccc7ccccc57)NC(=O)[C@@H]5CCCN5C4=O)C(=O)N[C@@H](CCSC)C(=O)N[C@@H](CCCCNC(=N)N)C(=O)N[C@@H](CC(=O)O)C(=O)N[C@@H](Cc4c[nH]c5ccccc45)C(=O)N[C@@H](CO)C(=O)N[C@@H]([C@@H](C)O)C(=O)N4CCC[C@H]4C(=O)N4C[C@H](O)C[C@H]4C(=O)N[C@@H](Cc4c[nH]c5ccccc45)C(=O)N[C@H](C(N)=O)CSCCC6=O)nn3)C(N)=O)NC1=O)C(=O)CCSC[C@H](NC(=O)[C@H](C)NC(C)=O)C(=O)N[C@@H]([C@@H](C)CC)C(=O)N[C@@H](CCC(=O)O)C(=O)N[C@@H](CCC(=O)O)C(=O)NCC(=O)N[C@@H](CCC(N)=O)C(=O)N[C@@H](Cc1ccc(O)cc1)C(=O)N2 | Tumor necrosis factor receptor superfamily member 9 (Homo sapiens, UniProt Q07011) | binding, SPR |  |  | Kd | 53 nM
CCCCOc1cc(C(=O)NCCN(CC)CC)c2ccccc2n1 | PKD2L1 (Homo sapiens, UniProt Q9P0L9) | ion current, inhibitor, patch clamp |  |  | IC50 | 8 µM
CC(C)C(=O)OCc1cc2[nH]c(=S)n(Cc3cncc(C(N)=S)c3)c(=O)c2cc1Cl | 4'-phosphopantetheinyl transferase PptT | enzyme activity, inhibitor, FP |  |  | IC50 | > 100 µM
COc1cc(CCNC(C)c2ccccc2O)c(OC)cc1C#N (single isomer, unassigned; (-)) | HTR2B (Homo sapiens, UniProt P41595) | G protein activation, agonist, BRET |  |  | EC50 | 2.8 µM
O=c1c2cc(Cl)ccc2[nH]c(=S)n1C(CCc1ccccc1)c1cccnc1 (stereo not drawn) | 4'-phosphopantetheinyl transferase PptT | enzyme activity, inhibitor, FP |  |  | IC50 | 0.19 µM
C#Cc1ccc2c(c1)C(c1ccccn1)=NCc1c(-c3cnco3)ncn1-2.Cl |  |  | water | 40 min, 37 °C | kinetic solubility | 2740 µg/mL
CCOC(=O)C1=C(C)NC(C)=C(C(=O)OC)C1c1cccc([N+](=O)[O-])c1 (stereo not drawn) | Cacna1c (Rattus norvegicus, UniProt P22002) | ligand displacement, radioligand |  |  | Ki | 0.22 nM
O=c1c2ccncc2[nH]c(=S)n1Cc1cccnc1 | 4'-phosphopantetheinyl transferase PptT | enzyme activity, inhibitor, FP |  |  | IC50 | 8.99 µM
N.N.[Cl][Pt][Cl] | Toledo | cell growth or viability, ATP luminescence |  | 72 h | IC50 | 0.81 µM
O=c1[nH]c2cc(CO)c(Cl)cc2c(=O)n1Cc1cncnc1 | 4'-phosphopantetheinyl transferase PptT | enzyme activity, inhibitor, FP |  |  | IC50 | 53.9 µM
COc1ncccc1-c1cnn2ccc(N3CCN(C(=O)OC(C)C)CC3)nc12 | CDKL3 (Homo sapiens, UniProt Q8IVW4) | binding, competition with immobilised ligand |  | 1 µM | remaining binding | 84%
CSCC[C@H](NC(=O)[C@H](CCC(N)=O)NC(=O)[C@H](Cc1c[nH]cn1)NC(=O)[C@@H]1CCCN1C(=O)[C@H](Cc1ccccc1)NC(=O)[C@H](CCC(N)=O)NC(=O)[C@@H](N)Cc1ccccc1)C(=O)N[C@H](C(=O)N[C@@H](Cc1ccccc1)C(=O)O)[C@@H](C)O | HLA class I histocompatibility antigen, A alpha chain (Homo sapiens, UniProt P04439) | cell-free assay |  |  | IC50 | 10.7 µM
Cc1nn(C)cc1-c1nc2c(N3CCN(Cc4ccc(Cl)cc4)CC3)c(Cl)cnc2[nH]1 | SBK1 (Homo sapiens, UniProt Q52WX2) | binding, competition with immobilised ligand |  | 1 µM | remaining binding | 80%
CS(=O)(=O)c1ccc2nc(-c3ccccc3)c(Nc3ccc(C(=O)O)cc3)n2c1 | TDP1 (Homo sapiens, UniProt Q9NUW8) | enzyme activity, inhibitor, fluorescence |  |  | IC50 | 3.03 µM
CCCCC(CC)COC(=O)c1ccccc1C(=O)O (stereo not drawn) | PPARA (Homo sapiens, UniProt Q07869) | reporter gene, agonist, luciferase |  |  | EC50 | 5.2 µM
[2H]c1c([2H])c([C@]2([2H])CCCN2C(=O)C(C)(C)Oc2ccc3cn[nH]c3c2)c([2H])c([2H])c1C([2H])([2H])[2H] | STK36 (Homo sapiens, UniProt Q9NRP7) | binding, competition with immobilised ligand |  | 1 µM | remaining binding | 100%
C[C@]12CC[C@@H](O)C[C@@H]1CC[C@@H]1[C@@H]2CC[C@]2(C)C(=O)CC[C@@H]12 | CNR2 (Homo sapiens, UniProt P34972) | cAMP, agonist |  |  | EC50 | 4.67 µM

Some of these lines once more:
SMILES | target or system | test | system | setting | endpoint | result
Nc1ncc(-c2nc(N3CCOCC3)nc(N3CCOCC3)n2)c(C(F)F)n1 | PIP4K2C (Homo sapiens, UniProt Q8TBX8) | binding, competition with immobilised ligand |  | 10 µM | remaining binding | 84%
CCCC[C@@H]1NC(=O)[C@H](Cc2ccc(O)cc2)NC(=O)[C@@H]2CCCN2C(=O)[C@H](CC(=O)O)NC(=O)[C@H](C)NC(=O)[C@H](Cc2ccccc2)NC(=O)[C@@H]2CSCCC(=O)N3CN(CN(C3)C(=O)CCSC[C@@H](C(=O)N[C@@H](CNC(=O)CCc3cn(CCOCCOCCOCCOCCOCCOCCOCCOCCOCCOCCOCCOCCOCCOCCOCCOCCOCCOCCOCCOCCOCCOCCOCCNC(=O)N[C@H]4CSCCC(=O)N5CN6CN(C5)C(=O)CCSC[C@H](NC(=O)[C@@H](CC(=O)O)NC(=O)[C@H](Cc5cccc7ccccc57)NC(=O)[C@@H]5CCCN5C4=O)C(=O)N[C@@H](CCSC)C(=O)N[C@@H](CCCCNC(=N)N)C(=O)N[C@@H](CC(=O)O)C(=O)N[C@@H](Cc4c[nH]c5ccccc45)C(=O)N[C@@H](CO)C(=O)N[C@@H]([C@@H](C)O)C(=O)N4CCC[C@H]4C(=O)N4C[C@H](O)C[C@H]4C(=O)N[C@@H](Cc4c[nH]c5ccccc45)C(=O)N[C@H](C(N)=O)CSCCC6=O)nn3)C(N)=O)NC1=O)C(=O)CCSC[C@H](NC(=O)[C@H](C)NC(C)=O)C(=O)N[C@@H]([C@@H](C)CC)C(=O)N[C@@H](CCC(=O)O)C(=O)N[C@@H](CCC(=O)O)C(=O)NCC(=O)N[C@@H](CCC(N)=O)C(=O)N[C@@H](Cc1ccc(O)cc1)C(=O)N2 | Tumor necrosis factor receptor superfamily member 9 (Homo sapiens, UniProt Q07011) | binding, SPR |  |  | Kd | 53 nM
CCCCOc1cc(C(=O)NCCN(CC)CC)c2ccccc2n1 | PKD2L1 (Homo sapiens, UniProt Q9P0L9) | ion current, inhibitor, patch clamp |  |  | IC50 | 8 µM
